Measurements of several laboratories.
Parts stem from different laboratories: compare values within a part only.

Set 1
Target: Interferon regulatory factor 5, full length, phosphomimetic (IRF5, Homo sapiens, UniProt Q13568-2, residues 1-514, K96S/S451D/S453D/S456D/S462D)
Method: protein-binding microarray
Form: double-stranded DNA, one strand shown
Medium: in vitro
Concentration: 250 nM
Notes: 60-bp whole probe
Together with: salmon DNA 0.4 mg/ml
Relative to: random background probes
Reading: higher = stronger binding
Constant ends, left off below: GCCTAGCAC … GTCTTGATTCGCTTGACGCTGCTG
`TTAGGTCTGGGTTTCGGTTAGTGCTAG` has a log fluorescence of 7.74 z-score.
With `GACGAACTGAGACTGGAGTCGTGCTAG` the log fluorescence was -0.446 z-score.
For `TTAGGACTGGGTTTCGATTAGTGCTAG`, the log fluorescence was 6.88 z-score.
`TTACGTTCCGGTTTCGGTTAGTGCTAG` has a log fluorescence of 9.84 z-score.
`TTAAATTTCAGTCTCGATTAGTGCTAG` gave a log fluorescence of 3.96 z-score.
`CCGAGAAACAGTAACCCTCTGTGCTAG` has a log fluorescence of 0.0165 z-score.
`ATGTTTTTCATTTTGTTCATGTGCTAG` gave a log fluorescence of 2.75 z-score.
With `TTAGATATCAGTTTCGATGAGTGCTAG` the log fluorescence was 9.35 z-score.
With `GACGGACTGCTTATCCAGACGTGCTAG` the log fluorescence was -0.423 z-score.
For `ATTTATTTACTCTCTACATGGGTGCTA`, the log fluorescence was 0.916 z-score.
For `TCAGCTTTCCTGATGGTACTGTGCTAG`, the log fluorescence was 0.0846 z-score.
`TCAATGATCTCTCTGGGACTGTGCTAG` gave a log fluorescence of -0.0749 z-score.
The log fluorescence of `GGACTCACCTAGTTTCATTCCGTGCTA` is reported as 2.31 z-score.
`GTAGGTATCCTTTTCCTTTAGTGCTAG` has a log fluorescence of 0.562 z-score.
The log fluorescence of `CTTTAGAGCAAGAACAGCCTGTGCTAG` is reported as -0.364 z-score.
`TTATGTTTCGGTATCGGTTAGTGCTAG` gave a log fluorescence of 10.8 z-score.
For `TCACATCTCACTCTAATACTGTGCTAG`, the log fluorescence was 0.388 z-score.
`TTAGGACTTGACTTTCGGTTAGTGCTA` has a log fluorescence of 9.97 z-score.
For `GACGGACTGCATCTCCTGACGTGCTAG`, the log fluorescence was -0.502 z-score.
`TCCTTTATGTACTCTCTACATGTGCTA` has a log fluorescence of 0.583 z-score.
The log fluorescence of `TTGGTGCTCATTTTTTTTGCGTGCTAG` is reported as 0.196 z-score.
`TCATTTTTCATTTTTTTACTGTGCTAG` has a log fluorescence of 2.26 z-score.
For `TCATTTTTTTTTTTGTAACTGTGCTAG`, the log fluorescence was 1.09 z-score.
The log fluorescence of `TTAGGTCTCGGTATCCGTTAGTGCTAG` is reported as 0.767 z-score.

Set 2
Target: POU, POU domain (Salpingoeca helianthica)
Method: Spec-seq
Form: double-stranded DNA, one strand shown
Medium: in vitro
Concentration: not given
Notes: whole probe, mean of replicates
Relative to: not given
Reading: lower = stronger binding
Constant ends, left off below: GAGTCGTCTCGTCAGCAC … CCGTAGAGCACTCAGGTC
Residues (chain): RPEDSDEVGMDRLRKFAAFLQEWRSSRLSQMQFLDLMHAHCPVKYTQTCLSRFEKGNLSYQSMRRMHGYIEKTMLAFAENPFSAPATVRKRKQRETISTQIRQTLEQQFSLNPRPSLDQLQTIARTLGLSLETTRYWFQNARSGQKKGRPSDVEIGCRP
For `ATACAGAT`, “relative binding energy” read 1.29 ln ratio.
Under “relative binding energy”, `ATGCCTAC` is recorded as 1.06 ln ratio.
`GTTTTAAT`: “relative binding energy” -0.179 ln ratio.
Under “relative binding energy”, `TGTTTAAT` is recorded as -0.482 ln ratio.
`TTCGTAAT` — result for “relative binding energy”: 0.242 ln ratio.
Under “relative binding energy”, `ATGCTTGT` is recorded as 1.23 ln ratio.
For `TCCTTAAT`, “relative binding energy” read 0.364 ln ratio.
`ATGCACAG` — result for “relative binding energy”: 1.41 ln ratio.
For `GGCGTAAT`, “relative binding energy” read 0.575 ln ratio.
`ATTGCGAT` — result for “relative binding energy”: 1.38 ln ratio.
`ATGCTATA` — result for “relative binding energy”: 1.2 ln ratio.
For `ATATGTAT`, “relative binding energy” read 0.808 ln ratio.
`ATTATAAT`: “relative binding energy” -0.687 ln ratio.
`ATAACAAT` — result for “relative binding energy”: -0.0582 ln ratio.
Under “relative binding energy”, `ATGCAAAG` is recorded as 1.5 ln ratio.
For `TTCCTAAT`, “relative binding energy” read 0.683 ln ratio.
For `CTCTTAAT`, “relative binding energy” read 0.187 ln ratio.
`ATAACTAT` — result for “relative binding energy”: -0.331 ln ratio.
Under “relative binding energy”, `CTGATAAT` is recorded as 0.176 ln ratio.
Under “relative binding energy”, `ATGCGCGA` is recorded as 1.5 ln ratio.
`ATTCCAAT`: “relative binding energy” 1.01 ln ratio.
`ATTCGAAT`: “relative binding energy” 0.912 ln ratio.
`ATGCATGC`: “relative binding energy” 1.12 ln ratio.
For `TATCTAAT`, “relative binding energy” read 0.788 ln ratio.
`ATGCGTGC`: “relative binding energy” 1.3 ln ratio.

Set 3
Target: Ras GTPase-activating protein-binding protein 1, C-terminal RGG region (G3BP1, Homo sapiens, UniProt Q13283)
Chain of UniProt Q13283 (whole entry, looked up): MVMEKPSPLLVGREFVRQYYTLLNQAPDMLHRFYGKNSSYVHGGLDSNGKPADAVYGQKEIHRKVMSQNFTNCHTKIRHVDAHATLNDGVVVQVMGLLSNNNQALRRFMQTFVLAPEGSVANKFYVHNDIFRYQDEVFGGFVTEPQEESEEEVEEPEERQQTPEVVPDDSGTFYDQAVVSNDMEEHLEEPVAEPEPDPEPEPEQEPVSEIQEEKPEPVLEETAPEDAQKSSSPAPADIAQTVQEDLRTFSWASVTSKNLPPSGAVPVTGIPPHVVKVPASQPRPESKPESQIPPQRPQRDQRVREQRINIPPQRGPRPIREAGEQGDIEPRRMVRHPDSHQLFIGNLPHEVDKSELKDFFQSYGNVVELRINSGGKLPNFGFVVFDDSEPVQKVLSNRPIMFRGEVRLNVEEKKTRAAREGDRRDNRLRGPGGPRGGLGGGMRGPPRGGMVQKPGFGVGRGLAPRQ
Method: RNA Bind-n-Seq
Form: RNA
Medium: in vitro
Concentration: 1 µM
Notes: whole 134-nt RNA, ends assumed
Together with: 150 mM KCl
Relative to: input library
Reading: higher = stronger binding
The log2 enrichment of `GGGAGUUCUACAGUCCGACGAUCGUCCUGUGCUACACAUCGUAUGUACCGAAUCGGGGAGGGGAAAAAGGGGUUUUUGGGGAAAGUAUUAUGUUACGCCGUUCGGAUCUGCACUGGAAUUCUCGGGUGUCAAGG` is reported as 1.94.
For `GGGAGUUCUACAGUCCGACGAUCCUCAAGUCCUGUGCUACACAUCGUAUGUACCGAAUCGGAAAGGAAAAAGGAGGAAAGUAUUAUGUUACGCCGUUCGGAUCUGCACUUCCAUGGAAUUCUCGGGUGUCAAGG`, the log2 enrichment was -1.3.
With `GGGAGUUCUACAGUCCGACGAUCACCAUGCAGGUGGGCAUCUUUGGGAAGUGGGGCAAGGGCGGGAUAGGGAGGGGGGUAACACUUUGGGAACAGGUGGUCCCAGGUCGUUUCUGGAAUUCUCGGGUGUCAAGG` the log2 enrichment was -0.747.
With `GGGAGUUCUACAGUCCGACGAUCUCCUGUGCUACACAUCGUAUGUACCGAAUCGGUUUUUUUGGAAAAAAAGGUUUUUUUGGAAAGUAUUAUGUUACGCCGUUCGGAUCUGCAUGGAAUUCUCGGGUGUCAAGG` the log2 enrichment was -1.57.
For `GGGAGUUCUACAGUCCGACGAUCUGGCCCUGGCGGCAUGCGGGGAGGAAGAGGUGGCCUCAUGGAUCGUGGUGGUCCCGGUGGAAUGUUCAGAGGUGGCCGUGGUGGAGACAGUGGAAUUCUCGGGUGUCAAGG`, the log2 enrichment was 2.07.
For `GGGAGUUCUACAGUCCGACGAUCCAAGUCCUGUGCUACACAUCGUAUGUACCGAAUCGGAAAAAAAGGUUUGGUUUGGAAAGUAUUAUGUUACGCCGUUCGGAUCUGCACUUCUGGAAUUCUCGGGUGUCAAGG`, the log2 enrichment was -1.91.
`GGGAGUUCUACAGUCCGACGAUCGCAGGAAGUAAAAACAAAUGGAAAUGCUUCGGAUAGUGGCAGGGGUGGGGGUUGCUAAGGAAAGGGUGGGAUGGGAGUGGGGAAAGAGUUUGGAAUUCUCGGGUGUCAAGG` has a log2 enrichment of 0.592.
`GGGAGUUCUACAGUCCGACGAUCUCCUGUGCUACACAUCGUAUGUACCGAAUCGGGGUUUUUUGGGUUUUUUGGUUUUUUGGAAAGUAUUAUGUUACGCCGUUCGGAUCUGCAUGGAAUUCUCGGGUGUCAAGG` has a log2 enrichment of -0.801.
The log2 enrichment of `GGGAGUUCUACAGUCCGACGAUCGUCCUGUGCUACACAUCGUAUGUACCGAAUCGGGGCCCCCGGGCCCCCGGCCCCCGGGAAAGUAUUAUGUUACGCCGUUCGGAUCUGCACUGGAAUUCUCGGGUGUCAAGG` is reported as -1.04.
With `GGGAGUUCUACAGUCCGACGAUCUCCUGUGCUACACAUCGUAUGUACCGAAUCGGGAAAAAGGGGAAAAAGGGGAAAAAGGGAAAGUAUUAUGUUACGCCGUUCGGAUCUGCAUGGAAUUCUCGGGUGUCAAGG` the log2 enrichment was -0.385.
`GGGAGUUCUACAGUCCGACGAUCUCCUGUGCUACACAUCGUAUGUACCGAAUCGGGGAAAAAGGGGUUUUUUUGGGGUGGGGAAAGUAUUAUGUUACGCCGUUCGGAUCUGCAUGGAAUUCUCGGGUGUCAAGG` has a log2 enrichment of 1.29.
The log2 enrichment of `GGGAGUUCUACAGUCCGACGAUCCUCAAGUCCUGUGCUACACAUCGUAUGUACCGAAUCGGGAAGGGAAGGAAGGGGAAAGUAUUAUGUUACGCCGUUCGGAUCUGCACUUCCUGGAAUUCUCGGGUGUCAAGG` is reported as 1.11.
The log2 enrichment of `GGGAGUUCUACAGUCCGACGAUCAAGUCCUGUGCUACACAUCGUAUGUACCGAAUCGGGAGGGUUUUUGGGAAAAAGGGAAAGUAUUAUGUUACGCCGUUCGGAUCUGCACUUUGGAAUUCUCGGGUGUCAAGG` is reported as -0.0197.
For `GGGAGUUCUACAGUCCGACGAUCACCAUGCAGGUGGGCAUCUUUGGGAAGUGGGGCAAGGGGGGGAUAAAGAGGGGGGUAACACUUUGGGAACAGGUGGUCCCAGGUCGUUUCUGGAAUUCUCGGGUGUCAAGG`, the log2 enrichment was -0.826.

Set 4
Target: Histone acetyltransferase KAT6A, winged helix 2, GST fusion (KAT6A, Homo sapiens, UniProt Q92794, residues 85-181)
Method: protein binding microarray
Form: double-stranded DNA, one strand shown
Medium: in vitro
Concentration: not given
Notes: 8-mer, flanks averaged, mean of 2 arrays, mostly near background
Relative to: not given
Reading: higher = stronger binding
Residues (chain): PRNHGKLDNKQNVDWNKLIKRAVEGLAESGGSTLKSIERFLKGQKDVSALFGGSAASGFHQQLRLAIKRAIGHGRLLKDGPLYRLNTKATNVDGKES
The E-score of `CATAGAGA` is reported as -0.175.
`GCGAATGA` has an E-score of 0.0804.
`ATGGTCAG` has an E-score of 0.0542.
`ACGACCGT` gave an E-score of -0.194.
The E-score of `GCCTTCAC` is reported as 0.185.
For `AGGTATGG`, the E-score was -0.191.
`ATCGGAAT` has an E-score of -0.0064.
`AAGCTCAC` gave an E-score of 0.00775.
For `ATTCAACC`, the E-score was -0.0241.
`CACACTGC` gave an E-score of 0.039.
The E-score of `CGCCGGAA` is reported as 0.272.
`AGAGCACT` gave an E-score of 0.0603.
`CTCCCCTC` has an E-score of 0.212.
For `CCTCGATA`, the E-score was 0.0847.
For `CGAGTGCA`, the E-score was 0.154.
For `CTAGACCA`, the E-score was -0.296.
The E-score of `CTCTGAAG` is reported as -0.0129.
`AGCTTGTC` gave an E-score of 0.0805.
`GCCCGGGC` gave an E-score of 0.206.
For `AACCTTGA`, the E-score was 0.0977.
`AAACCGGC` has an E-score of 0.104.
For `GCCGGGCA`, the E-score was 0.129.
`GGCTCGGA` gave an E-score of -0.087.
`GACGCGAA` gave an E-score of 0.0406.
For `ATCGTTTA`, the E-score was 0.0122.

A few entries again (set 4):
For `CGAGTGCA`, the E-score was 0.154.
For `CTAGACCA`, the E-score was -0.296.
The E-score of `CTCTGAAG` is reported as -0.0129.
`AGCTTGTC` gave an E-score of 0.0805.
`GCCCGGGC` gave an E-score of 0.206.
For `AACCTTGA`, the E-score was 0.0977.
`AAACCGGC` has an E-score of 0.104.
For `GCCGGGCA`, the E-score was 0.129.
